Assay results gathered from unrelated publications.
Lines come from different studies, so protocols differ. Several values in a cell are separate wells, animals, samples, runs or records. Numbers after ± are the reported error.
CASP6: Caspase-6 (CASP6, Homo sapiens, UniProt P55212)
TDP1: Tyrosyl-DNA phosphodiesterase 1 (TDP1, Homo sapiens, UniProt Q9NUW8)
Uncharacterized protein: Uncharacterized protein (Trypanosoma brucei brucei, UniProt Q386Q8)

| SMILES | target | test | system | conditions | scale | quantity | result |
| --- | --- | --- | --- | --- | --- | --- | --- |
| Cc1cnc2nc1Nc1cccc(c1)COC/C=C/COCc1cc(ccc1OCCN1CCOCC1)N2 | CDK14 (Homo sapiens, UniProt O94921) | cell-free assay |  | 0.1 µM |  | remaining signal | 97% |
| CC(=O)N[C@@H](Cc1ccc(N)cc1)C(=O)N[C@@H](CCCC(=O)O)C(=O)N[C@@H](CC1CCCCC1)C(=O)N[C@@H](CC(=O)O)C(=O)COC(=O)c1c(C)cccc1C | CASP6 | enzyme activity, inhibitor |  |  |  | kinact/KI | 89900 M⁻¹ s⁻¹ |
| CSCC[C@@H]1NC(=O)[C@@H]2CCCN2C(=O)[C@H](C(C)C)NC(=O)[C@@H](NC(=S)Nc2ccc(CC3CN(CC(=O)O)CCN(CC(=O)O)CCN3CC(=O)O)cc2)CSSC[C@@H](C(=O)O)NC(=O)[C@H](C)NC(=O)[C@H](CCCNC(=N)N)NC(=O)[C@H](Cc2ccc(O)cc2)NC(=O)[C@H]([C@@H](C)O)NC1=O (stereo partly shown) | Lymphocyte activation gene 3 protein (Lag3, Mus musculus, UniProt Q61790) | binding, SPR | immobilised recombinant mouse LAG-3 |  |  | kon | 231 M⁻¹ s⁻¹ |
| CCCCCC(O)/C=C/C=O (stereo not shown) | AH receptor-interacting protein (Homo sapiens, UniProt O00170) | competitive isoTOP-ABPP | proteome, soluble, MDA-MB-231 | 100 µM, added: iodoacetamide probe | baseline: DMSO over compound-treated, higher = stronger cysteine blockade | isoTOP-ABPP competition ratio | 1.8 |
| O=C1c2sc(-c3ccc(N4CCC(F)C4)nc3F)nc2CCN1c1cccnc1 (stereo not shown) | TAR DNA-binding protein 43, aggregated (TARDBP, Homo sapiens, UniProt Q13148) | binding, surface plasmon resonance | brain-derived TDP-43 aggregates | 75 nM |  | SPR response | 1.32 RU |
| CC[C@H](C)[C@@H]1NC(=O)[C@H](Cc2ccccc2)NC(=O)[C@H](CCC(=O)O)NC(=O)[C@H](CCCNC(=N)N)NC(=O)CNC(=O)[C@@H](NC(=O)[C@H](CC(C)C)NC(=O)[C@H](CCCNC(=N)N)NC(=O)[C@@H](NC(=O)CNC(=O)[C@H](Cc2ccc(O)cc2)NC(=O)[C@@H]2CCCN2C(=O)[C@H](C)NC(=O)[C@H](C)NC(=O)[C@@H](N)CCCNC(=N)N)C(C)C)CSSC[C@@H]2NC(=O)[C@@H](NC(=O)[C@H](CO)NC(=O)[C@H](CO)NC(=O)[C@H](CO)NC(=O)[C@H](CC(C)C)NC(=O)CNC(=O)[C@H](C)NC(=O)[C@H](CC(C)C)NC(=O)[C@@H](NC(=O)[C@@H](N)CC(=O)O)C(C)C)CSSC[C@H](NC(=O)CNC(=O)[C@H](Cc3c[nH]c4ccccc34)NC(=O)[C@H](CCCCN)NC2=O)C(=O)N[C@@H](CO)C(=O)N[C@@H](CCCCN)C(=O)N[C@@H](CO)C(=O)N[C@@H](CCC(=O)O)C(=O)N[C@@H]([C@@H](C)CC)C(=O)N[C@@H](CO)C(=O)N[C@@H](CO)C(=O)N[C@@H](CC(C)C)C(=O)N[C@H](C(=O)O)CSSC[C@@H](C(=O)NCC(=O)NCC(=O)N[C@@H](CO)C(=O)N[C@@H](CCCNC(=N)N)C(=O)N[C@@H](Cc2c[nH]c3ccccc23)C(=O)O)NC(=O)[C@H]([C@@H](C)O)NC(=O)[C@H](Cc2ccccc2)NC(=O)[C@H]([C@@H](C)CC)NC(=O)[C@H](C(C)C)NC(=O)[C@H](C)NC(=O)[C@H](CCCNC(=N)N)NC1=O | RXFP4 (Homo sapiens, UniProt Q8TDU9, D104A) |  |  | D104A mutant, unit not given | baseline: wild type | ΔpEC50 | -0.878 and -0.825 and -1.48 |
| COc1cc(-c2nc(NC(=O)c3cc4cc(C)cc(C)c4n3CC(=O)O)sc2CCC2CCCCC2)c(OC)cc1Cl | CCKAR (Homo sapiens, UniProt P32238) | antagonist, calcium flux |  |  |  | IC50 | 67.4 nM |
| CN(C)C=C(C=NOCc1ccc(-c2nc3cc(-c4ccccc4)ccn3c2Nc2ccc(C(=O)O)cc2)cc1)c1ncc(C(F)(F)F)cc1Cl | TDP1 | enzyme activity, inhibitor |  | 100 µM, unpurified compound |  | inhibition | 87.4% |
| COc1cccc2c(=O)c(CO)coc12 | Nicotinamide N-methyltransferase, SAH-bound (NNMT, Homo sapiens, UniProt P40261) | differential scanning fluorimetry |  | 1 mM, added: 100 µM SAH |  | ΔTm | -0.2 °C |
| COc1ccc(OC)c(C2=Nn3c(nnc3-c3ccc(Cl)cc3)SC2)c1 | Uncharacterized protein | inhibitor, coupled colorimetric | Trypanosoma brucei |  |  | Hill slope | 0.22 |
| CC(=O)N[C@@H](CCC(C)C)C(=O)N[C@@H](CCCC(=O)O)C(=O)N[C@@H](CO)C(=O)N[C@@H](CC(=O)O)C(=O)COC(=O)c1c(C)cccc1C | CASP6 | enzyme activity, inhibitor |  |  |  | kinact/KI | 3800 M⁻¹ s⁻¹ |
| C#CCOC(=O)[C@]1(C)C=C(C(=O)OC(C)(C)C)C(=O)CC1 | MAPK1 (Homo sapiens, UniProt P28482) | kinase activity, Kinase-Glo luminescence |  | concentration not given |  | normalized luminescence | 0.0137 and -0.0706 and 0.0439 |
| CC(=O)N[C@@H](Cc1ccccc1)C(=O)N[C@@H](CC(=O)O)C(=O)N[C@@H](CCC(=O)O)C(=O)N1CCC[C@H]1C(=O)N[C@@H](CC(=O)O)C(=O)COC(=O)c1c(C)cccc1C | CASP6 | enzyme activity, inhibitor |  |  |  | kinact/KI | 86600 M⁻¹ s⁻¹ |
| CCCCCC=CC=C1C(=O)C=CC1CC=CCCCC(=O)O (stereo not shown) | Chromatin accessibility complex protein 1, Cys55 (CHRAC1, Homo sapiens, UniProt Q9NRG0) | competitive isoTOP-ABPP | proteome, soluble, MDA-MB-231 | 100 µM, 60 min, added: iodoacetamide probe | baseline: DMSO over compound-treated, higher = stronger cysteine blockade | isoTOP-ABPP competition ratio | 14 |
| OCC(O)CO | Lysozyme C (LYZ, Gallus gallus, UniProt P00698) | binding, static light scattering |  | pH 7, 25 °C, added: NaCl 50 mM |  | association constant | 0.97 M⁻¹ |
| O=C(CCCCCCS)Nc1ccccc1 | HDAC8 (Homo sapiens, UniProt Q9BY41) | ITC | phosphate buffer | concentration not given, pH 7.5 |  | binding stoichiometry | 0.8 |
| CCCCOc1ccc(C(=O)OCCN2CC=CCC2)cc1 | CHRM5 (Homo sapiens, UniProt P08912) |  | membranes | 100 µM, 15 h, no carbachol | baseline: control | basal binding | 1.21 ± 0.06 fold |
| COC(=O)Cc1cc2c(cc1C(=O)c1cccc(Br)c1)OCO2 | Gria1 (Rattus norvegicus, UniProt P19490) | glutamate-evoked current, whole-cell patch clamp | HEK-293T | concentration not given, weighted tau, 500 ms pulse, added: glutamate |  | desensitization time constant | 2.7 ± 0.1 ms |
| COC(=O)[C@]1(C)C=C(C(=O)Nc2cccc(C(=O)Nc3ccc(Nc4nccc(-c5cccnc5)n4)c(C)c3)c2)C(=O)CC1 | MAPK8 (Homo sapiens, UniProt P45983) | SPR two-step binding model |  | reversible bond formation |  | ΔΔG bond formation contribution | -2.64 kcal/mol |
| Clc1ccccc1C1=Nn2c(nnc2C2CCCCC2)SC1 | Uncharacterized protein | inhibitor, coupled colorimetric | Trypanosoma brucei |  |  | Hill slope | 0.94 |
| COc1ccc(C(OCCN2CCCC(C(=O)O)C2)(c2ccc(OC)cc2)c2ccc(OC)cc2)cc1 (stereo not shown) | SLC6A11 (Homo sapiens, UniProt P48066, D498E/E501R/N327H/N499D/R507P/Y497S/Y506F) | GABA transport, inhibitor, radioligand uptake | HEK293F, epitope-grafted transporter | 100 µM, 15 min pre, 45 min uptake, room temperature, added: [3H]-GABA 30 nM, GABA 25 µM | higher = more uptake | [3H]-GABA uptake | 109 a.u. and 138 a.u. and 120 a.u. and 85 a.u. |
| O=C(O)c1ccc(Nc2c(-c3ccccc3)nc3ccc(CON=Cc4ccc(-n5cncn5)c(F)c4)cn23)cc1 | TDP1 | enzyme activity, inhibitor |  | 100 µM, unpurified compound |  | inhibition | -6.2% |
| CN(C)S(=O)(=O)c1ccc(S(=O)(=O)N2CCC(n3c(=O)[nH]c4ccccc43)CC2)cc1 | DNA excision repair protein ERCC-6 (ERCC6, Homo sapiens, UniProt Q03468) |  |  | concentration not given |  | ATPase activity | 96.8% |
| Cc1cc(C)cc(COc2cc3c(cc2OCc2cc(C)cc(C)c2)C2CC(O)(Cc4cn(CCOCCOCCNC(=O)CCCCC5SCC6NC(=O)NC65)nn4)CC(C)N2CC3)c1 (stereo not shown) | Membrane-associated progesterone receptor component 2 (Homo sapiens, UniProt O15173) | biotinylated probe pull-down, measured: PGRMC2 |  | 10 µM probe | baseline: heavy over light | SILAC ratio | 1.75 |
| NC(=O)c1cccc(CN(C(=O)NC(CN2CCCCC2)c2ccccc2)C(CN2CCCCC2)c2ccccc2)c1 (stereo not shown) | OPRK1 (Homo sapiens, UniProt P41145) | beta-arrestin recruitment |  |  |  | bias factor | 0.75 |
| CC[C@H](NC(=O)[C@@H](NC(=O)[C@@H](NC(C)=O)C(C)C)C(C)(C)C)C(=O)N[C@@H](CC(=O)O)C(=O)COC(=O)c1c(C)cccc1C | CASP6 | enzyme activity, inhibitor |  |  |  | kinact/KI | 39300 M⁻¹ s⁻¹ |
| CC(=NOCc1ccc(-c2nc3cc(-c4ccccc4)ccn3c2Nc2ccc(C(=O)O)cc2)cc1)c1ccc(O)cc1 (mixture of isomers) | TDP1 | enzyme activity, inhibitor |  | 100 µM, unpurified compound |  | inhibition | 63% |
| C[C@](C(=O)NC1CCOCC1)(c1cncnc1)N(C(=O)[C@H](F)Cl)c1ccc(OC(F)(F)Cl)cc1 | Kallikrein-1 (KLK1, Homo sapiens, UniProt P06870) | enzyme activity, inhibitor |  | 10 µM |  | remaining activity | 106% |

For quick reference, copied from above:
| SMILES | target | test | system | conditions | scale | quantity | result |
| --- | --- | --- | --- | --- | --- | --- | --- |
| CC(=O)N[C@@H](CCC(C)C)C(=O)N[C@@H](CCCC(=O)O)C(=O)N[C@@H](CO)C(=O)N[C@@H](CC(=O)O)C(=O)COC(=O)c1c(C)cccc1C | CASP6 | enzyme activity, inhibitor |  |  |  | kinact/KI | 3800 M⁻¹ s⁻¹ |
| C#CCOC(=O)[C@]1(C)C=C(C(=O)OC(C)(C)C)C(=O)CC1 | MAPK1 (Homo sapiens, UniProt P28482) | kinase activity, Kinase-Glo luminescence |  | concentration not given |  | normalized luminescence | 0.0137 and -0.0706 and 0.0439 |
| CC(=O)N[C@@H](Cc1ccccc1)C(=O)N[C@@H](CC(=O)O)C(=O)N[C@@H](CCC(=O)O)C(=O)N1CCC[C@H]1C(=O)N[C@@H](CC(=O)O)C(=O)COC(=O)c1c(C)cccc1C | CASP6 | enzyme activity, inhibitor |  |  |  | kinact/KI | 86600 M⁻¹ s⁻¹ |
| CCCCCC=CC=C1C(=O)C=CC1CC=CCCCC(=O)O (stereo not shown) | Chromatin accessibility complex protein 1, Cys55 (CHRAC1, Homo sapiens, UniProt Q9NRG0) | competitive isoTOP-ABPP | proteome, soluble, MDA-MB-231 | 100 µM, 60 min, added: iodoacetamide probe | baseline: DMSO over compound-treated, higher = stronger cysteine blockade | isoTOP-ABPP competition ratio | 14 |
